Measurements gathered from unrelated publications.
Numbered parts are unrelated; each lists some results of a single study.

Study 1
Target: Interferon regulatory factor 3, full length, phosphomimetic (IRF3, Homo sapiens, UniProt Q14653, residues 1-427, S386D/S396D/S398D/S402D/T404D/S405D)
Sequence of UniProt Q14653 (whole entry, unmodified, looked up): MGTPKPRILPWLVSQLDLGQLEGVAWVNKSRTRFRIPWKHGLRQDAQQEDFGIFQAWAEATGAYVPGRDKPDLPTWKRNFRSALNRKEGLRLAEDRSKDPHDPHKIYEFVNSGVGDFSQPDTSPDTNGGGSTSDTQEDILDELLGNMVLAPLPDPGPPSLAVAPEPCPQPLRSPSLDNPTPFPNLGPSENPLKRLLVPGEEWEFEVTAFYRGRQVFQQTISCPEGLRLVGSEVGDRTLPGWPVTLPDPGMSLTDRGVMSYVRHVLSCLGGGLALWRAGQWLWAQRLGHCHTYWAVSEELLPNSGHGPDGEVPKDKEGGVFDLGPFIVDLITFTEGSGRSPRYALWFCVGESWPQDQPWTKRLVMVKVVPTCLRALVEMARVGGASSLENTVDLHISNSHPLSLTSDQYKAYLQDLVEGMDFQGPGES
Technique: protein-binding microarray
Form: double-stranded DNA, one strand shown
Matrix: in vitro
Concentration: 2540 nM top
Setting: 60-bp whole probe
Added: salmon DNA 0.4 mg/ml
Relative to: random background probes
Direction: higher = stronger binding
Constant ends, left off below: GCCTAGCAC … GTCTTGATTCGCTTGACGCTGCTG
Sequence | fitted relative affinity
TTAGGCCTCCTTCTCCTTTAGTGCTAG | 0.988 z-score
TCACATTTGATAAATCTTACTGTGCTA | 0.655 z-score
TCATCTCTGGTTCTTGCACTGTGCTAG | 0.627 z-score
AACGAACTGGGGTATCGAGACGTGCTA | -0.487 z-score
TTAGAACTGGGGACGGGATTAGTGCTA | -0.656 z-score
TGAGGTATCGACACTGGGTTAGTGCTA | -0.19 z-score
CAGGGTTTCACTTTAAATTAGTGCTAG | 4.63 z-score
TTAGATATCGGGCCTGGATTAGTGCTA | -0.463 z-score
GACGATACCGGGTATCGAGACGTGCTA | 0.0473 z-score
GACAGACTGCTTATCCTGACGTGCTAG | -0.159 z-score
TCACTTTCCTTACTTCCCACTGTGCTA | 7.18 z-score
GACGGTTTCGGGCCTGGGGACGTGCTA | 2.92 z-score
TCATAGGTTTCACTTTCCACTGTGCTA | 5.94 z-score
CTAGATTTCAGTCTCGATTAGTGCTAG | 2.36 z-score
AACGGTATCGGGACTGGGGACGTGCTA | 1.59 z-score
TTAGGTATCGGTTTCCGTTAGTGCTAG | 7.69 z-score
TTAGTACTGGGGTTTCGGTTAGTGCTA | 2.56 z-score

Study 2
Target: RNA binding protein fox-1 homolog 2, RRM domain, GST-SBP tag (RBFOX2, Homo sapiens, UniProt O43251-10, residues 100-194)
Technique: RNA Bind-n-Seq
Form: RNA
Matrix: in vitro
Concentration: 365 nM
Setting: natural RNA segment, single round, ends assumed
Relative to: no-protein control
Direction: higher = stronger binding
Constant ends, left off below: GGGAGUUCUACAGUCCGACGAUC … UGGAAUUCUCGGGUGCCAA
Construct (chain): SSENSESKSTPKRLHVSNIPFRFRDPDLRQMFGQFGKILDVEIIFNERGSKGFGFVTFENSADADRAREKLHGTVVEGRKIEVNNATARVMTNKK
Sequence | RBNS enrichment (R)
CGGGAAGCAGCCGCGGGGAGGUAAUGAAUUGUCUGUGGUAUCAUGUCAGCAGAGUCUCCAAGCCCCACGAACCCUGAGGAGUGGAGUCAUACGCGAAGGCCAUAUGGCCA | 0.56
AGUUUCAGUGAGUCCCAGGGACUAAUUAAGGUUUAUUUUAAAAAGUGUCUACCUUGGUACGCAGCCACCUCCUGCAUGCUGUGCAUGUUAUUGGGACUUGUAUUAUAGGU | 2.44
UCACCAACUAGUCUCAAAAGAUUGUCUUAAGCCCUGACGAUGGCUGUCCCCAGCCACACCUUGGGGCAUCCUCUCUGCCUGGCCCUGUCUGAUGAGCAUUUCUGUUGCUU | 0.277
UUAGAGAGUCUGUCUUGAUUUGUGGUUUCAGAGACCCUAGAGAAAUUUGUACCAGUUUGUAUUAAAGUCAGUACUACCAGCACUUUGCCAAAACUACGGAUGUCAGAGGG | 0.289
UUCUGAACUGUUGGAUUCUAGGCAUUCCUGAGAAAUUGAAAGUGGCUACCUUUCAUGUCAAAAUGUUGAUCUGUUAUAAAUAAAUGUUUUGCAUACUUGUUUUUGCUGUG | 0.272
GCUCUUUGUCUGCUCAAAGGAAACUUGAAAUAUCUGAGUAAAAGUCAAAGAAACCCAGCUAAGUAAGCAACAUAAAGCCUGUUGUGUCAGGUCCUGCAGGUCGAUGUGUG | 0.426
CCAGGUCCUGUCUCAGCUGCAACCCAUAGAACUGCAGGGCCAGGCUAGGUGCCCCUUGGAUAGAUGGGUGGCCAAGCCCCCUGGCCUGAAGGCCCGUCUCUGCAUCUCUA | 0.773
UUCCCGGAUCCUCCUCGCUGGGCCCGAGUGUGGCAGCAGCUCGGGUCGGGGCCUUGGUUUCCAGAGGGUCCGGGCUGGUUUGACUGCUUUAACUAGGAUUAGUUCAGUGG | 0.442

Study 3
Target: Histone acetyltransferase KAT6A, winged helix 1, GST fusion (KAT6A, Homo sapiens, UniProt Q92794, residues 1-85)
Technique: protein binding microarray
Form: double-stranded DNA, one strand shown
Matrix: in vitro
Concentration: not given
Setting: 8-mer, flanks averaged, mean of 2 arrays, mostly near background
Relative to: not given
Direction: higher = stronger binding
Residues (chain): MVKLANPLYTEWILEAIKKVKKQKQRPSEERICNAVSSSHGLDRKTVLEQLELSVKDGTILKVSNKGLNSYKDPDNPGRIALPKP
Sequence | E-score
CCTGAACA | -0.124
CTGGTAGA | -0.306
CTTAGCAC | 0.0137
CGCGAAAA | 0.182
ATTATACA | -0.181
CCTAGAGA | -0.163
ACCGGTAG | 0.206
ATCGGACC | 0.0844
GACCGAGC | 0.0967
AAGGCCAG | -0.0756
GGAGCTAA | -0.2
TATCGGGA | -0.0375
CCTGGCAG | -0.157
CAGGCTGG | -0.154
CACGCATG | 0.0428
GTTGTTCA | -0.0281

Study 4
Target: TAR DNA-binding protein 43, full length, His tag (TARDBP, Homo sapiens, UniProt Q13148, residues 1-414)
Technique: RNA Bind-n-Seq
Form: RNA
Matrix: in vitro
Concentration: 20 nM
Setting: 6-mer, flanks averaged, single round
Added: 150 mM LiCl
Relative to: input library
Direction: higher = stronger binding
Sequence | 6-mer enrichment (R)
CAAUGC | 0.865
UUUGAU | 1.04
ACCAUG | 0.882
CGGUUC | 0.881
CUGUAC | 0.892
GGGACC | 1.02
GAUGAC | 0.888
AAUUAU | 1.08
CUAGAG | 0.889
GAGAUG | 1.09
AUACCG | 0.834
CCAGGG | 1.03
CGUGGG | 1.16
UGGCGG | 1.16
AUUUCU | 1.01
AGGGCC | 1.02
GAGUAU | 1.08

A few entries again (study 2):
Sequence | RBNS enrichment (R)
UCACCAACUAGUCUCAAAAGAUUGUCUUAAGCCCUGACGAUGGCUGUCCCCAGCCACACCUUGGGGCAUCCUCUCUGCCUGGCCCUGUCUGAUGAGCAUUUCUGUUGCUU | 0.277
UUAGAGAGUCUGUCUUGAUUUGUGGUUUCAGAGACCCUAGAGAAAUUUGUACCAGUUUGUAUUAAAGUCAGUACUACCAGCACUUUGCCAAAACUACGGAUGUCAGAGGG | 0.289
UUCUGAACUGUUGGAUUCUAGGCAUUCCUGAGAAAUUGAAAGUGGCUACCUUUCAUGUCAAAAUGUUGAUCUGUUAUAAAUAAAUGUUUUGCAUACUUGUUUUUGCUGUG | 0.272
GCUCUUUGUCUGCUCAAAGGAAACUUGAAAUAUCUGAGUAAAAGUCAAAGAAACCCAGCUAAGUAAGCAACAUAAAGCCUGUUGUGUCAGGUCCUGCAGGUCGAUGUGUG | 0.426
CCAGGUCCUGUCUCAGCUGCAACCCAUAGAACUGCAGGGCCAGGCUAGGUGCCCCUUGGAUAGAUGGGUGGCCAAGCCCCCUGGCCUGAAGGCCCGUCUCUGCAUCUCUA | 0.773
UUCCCGGAUCCUCCUCGCUGGGCCCGAGUGUGGCAGCAGCUCGGGUCGGGGCCUUGGUUUCCAGAGGGUCCGGGCUGGUUUGACUGCUUUAACUAGGAUUAGUUCAGUGG | 0.442
